Measurements gathered from unrelated publications.
Each numbered part is a random draw from the data of one study; scales do not carry over between parts.

Sample 1
Target: RING finger protein unkempt homolog, zinc fingers 1-6, GST-SBP tag (UNK, Homo sapiens, UniProt Q9C0B0, residues 30-357)
Chain of UniProt Q9C0B0 (30-357, looked up): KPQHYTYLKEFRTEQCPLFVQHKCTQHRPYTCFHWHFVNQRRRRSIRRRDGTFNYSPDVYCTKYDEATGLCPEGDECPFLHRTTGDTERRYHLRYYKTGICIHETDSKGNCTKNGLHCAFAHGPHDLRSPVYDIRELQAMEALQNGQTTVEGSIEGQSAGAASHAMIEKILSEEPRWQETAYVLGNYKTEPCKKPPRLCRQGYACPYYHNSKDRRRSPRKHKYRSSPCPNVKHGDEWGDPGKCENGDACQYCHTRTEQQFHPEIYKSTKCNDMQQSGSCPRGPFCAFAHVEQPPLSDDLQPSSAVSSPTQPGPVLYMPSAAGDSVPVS
Method: RNA Bind-n-Seq
Form: RNA
Matrix: in vitro
Concentration: not given
Notes: RNA with constant flanks, human and mouse sites, ends assumed
Baseline: input RNA pool
Reading: higher = stronger binding
Endpoint: bound/input enrichment
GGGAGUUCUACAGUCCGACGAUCUGGGUAUCCCUGGUCAGUAAGAAUUAUGAGAUUGAACGGACUAUUGUUCAGCUAGAAAAUGAAAUCUAUCAAAUUAAGCAGCAACAUGGAGAGGCAAACAAAGAAAACAUCCGGCAAGACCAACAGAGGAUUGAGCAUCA: 0.975 ratio
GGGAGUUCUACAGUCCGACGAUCUAACUCUGGGACAGAAAAUACAGUCCUUCAUUUUUUUCCCUUUCCCUGUAAUCAGGAGGGGUAAGCCCUGCUCUUGCUCCCUGCCCUGUCUGGACAGGAGUGACGGGGACCCCACAGGACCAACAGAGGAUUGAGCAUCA: 0.13 ratio
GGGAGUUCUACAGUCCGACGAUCGAACCACCUUCGAAUGAAACACCUUCCUCCACAGAAACAUCUGCUAUUCCUGAGGAGGAAAUAGACUGGAUAGAGAAACAUUGUGUUAAGAUAAACAACGAUCUUCUAAUUUCCAAGGUCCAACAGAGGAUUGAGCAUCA: 0.197 ratio
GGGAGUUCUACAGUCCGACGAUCCCAACUUAUGAGACUGGAUCUCUUUCCUUUGCAGGAGACGAGAGAAUAUGAAGUUUCCAUCUAGGUGGGAGCAGCCUGGGGAUGCACACGCAGUCCUGCAUCGCAGGCCAGCGGCAGGGCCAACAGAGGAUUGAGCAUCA: 0.125 ratio
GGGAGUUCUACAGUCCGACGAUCGAUAGAAGUAUAUGGCCCUUGAUAAGAAUCUAUCGGGGUGGCUUUCUUCUGAUUGAAUUCCUUUUUCUACUGGGCAUCAACACGUAUGGUUGGAGACAGGCUGGAGUAAACCAUGUACUCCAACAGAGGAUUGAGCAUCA: 0.276 ratio
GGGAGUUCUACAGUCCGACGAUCAAGCUGGCUGUUCAGAUUGGCAAAGCAGGUCUGCUGAUGUCUGCCAUCACAGUUAUCAUCCUAGUGUUGUAUUUUGUGAUCGAUACCUUCUGGGUUCAGAAAAGACCAUGGCUUGCAGAGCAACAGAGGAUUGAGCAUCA: 0.379 ratio
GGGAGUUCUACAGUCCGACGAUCCCUGUUCCAUUUCCUUUGUUCAGAGGGUUGGACAUGAGUUUAGAUAAGUAUCUUACUCUGUUCCUCCUUUCGAAGUCUCUCUCUCUCUCUCUUUCUUUCUCUCUCUCUCUGUUCCUUCUCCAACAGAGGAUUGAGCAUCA: 0.381 ratio
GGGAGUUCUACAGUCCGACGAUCACUGCUGCCAAAUUUAUUGGUGCAGGUGCUGCAACAGUAGGAGUGGCUGGUUCUGGUGCUGGUAUUGGAACAGUCUUUGGCAGCCUUAUCAUUGGUUAUGCCAGAAACCCUUCGCUGAAGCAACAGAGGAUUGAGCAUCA: 0.173 ratio

Sample 2
Target: RNA binding protein fox-1 homolog 2, RRM domain, GST-SBP tag (RBFOX2, Homo sapiens, UniProt O43251-10, residues 100-194)
Method: RNA Bind-n-Seq
Form: RNA
Matrix: in vitro
Concentration: 365 nM
Notes: natural RNA segment, single round, ends assumed
Baseline: no-protein control
Reading: higher = stronger binding
Endpoint: RBNS enrichment (R)
Construct (chain): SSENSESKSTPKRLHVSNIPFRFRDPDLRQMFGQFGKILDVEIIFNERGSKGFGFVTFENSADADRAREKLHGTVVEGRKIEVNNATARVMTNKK
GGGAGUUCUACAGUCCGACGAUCAGCCUCCCGAAUAGCUGGGACUACAGGCGCACACCACCAUCCCCGGCUAAUUUUUGUAUUUUUUGUAGAGACGGGGUUUUGCCAUGUUGCCAAGGCUGGUUUCAAACUCCUGGAAUUCUCGGGUGCCAA: 0.677
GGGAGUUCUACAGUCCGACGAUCUGGGUUCACAUCUGUGUUUUGCAUGUCCAGCAGUGGGGCUCUGGACUCCCUAGCGCCCUGGUUGUGGUGACAGUCCAACAAGUUGAUAUUAUAAAGCACUUUAUAACACCUGGAAUUCUCGGGUGCCAA: 36.1
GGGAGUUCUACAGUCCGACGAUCUGUAUAGAUUGUGCAUUAAAAGCUGUUACCAAGUUGUCAGAACAUAAGAGCGAAAACAAGGUCAUAUGUAAUAUUUUGUUUGUAAGUAUCCUUUGUAUCAUAGCAAAGGAUGGAAUUCUCGGGUGCCAA: 0.623
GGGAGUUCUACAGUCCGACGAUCCCCACCACGGACUGCUCAGCCUGCUUCUCUCCCGGAACUUAAGGUCCAGCCAGACUUCAGGAUCUGUUGCAGGAGUUGGACUCACUGUGGGAAAAGCAGCGUUCCCUCUCUGGAAUUCUCGGGUGCCAA: 0.261
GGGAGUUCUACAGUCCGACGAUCGGGAAAGCAAAGACCAUAAGCACCAUUUUGCAGUUCUAUCUUUUUUUCCAGUUAGCCUAUGUAACCAAGUAUGCAUAACAUAACAGUAUUACCCUUUCACUCUUCUCACAUGGAAUUCUCGGGUGCCAA: 0.523
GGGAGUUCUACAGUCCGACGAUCUCUCUCUGAAUGUACUGUGUGAUGAUGCAUCAUGCAUGAACCUUCGGUCAGGGAUAUCAUUGGUGAAGUGAUUUCAAAAAGUAUUCAAAAUUUGAUAUGCUGUUUAGUCAUGGAAUUCUCGGGUGCCAA: 0.223
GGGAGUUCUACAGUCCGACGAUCAAGAUGAUUUCAGUUCAUCAAAUCAUCAUUAAUGACUUUAUGUAUUAUUUGCACAGGGAGAAUUGAAACUGAGUAUAAUCAAUAAGCUAGAUACGAAAUCAGUUUCUCAAUGGAAUUCUCGGGUGCCAA: 0.991
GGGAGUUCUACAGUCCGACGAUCGGAGGCAACAGGGAAAAAAUCUCAUCUUCUUUUCCAGUAGAAAAUAGUUUGUGAAAUGAUGAGGGCAUUUUAUCUGCUUGCUGUGACCAGCGUGUGUACACAUAAACCUUUGGAAUUCUCGGGUGCCAA: 0.564

Sample 3
Target: Ras GTPase-activating protein-binding protein 1, full length (G3BP1, Homo sapiens, UniProt Q13283)
Chain of UniProt Q13283 (whole entry, looked up): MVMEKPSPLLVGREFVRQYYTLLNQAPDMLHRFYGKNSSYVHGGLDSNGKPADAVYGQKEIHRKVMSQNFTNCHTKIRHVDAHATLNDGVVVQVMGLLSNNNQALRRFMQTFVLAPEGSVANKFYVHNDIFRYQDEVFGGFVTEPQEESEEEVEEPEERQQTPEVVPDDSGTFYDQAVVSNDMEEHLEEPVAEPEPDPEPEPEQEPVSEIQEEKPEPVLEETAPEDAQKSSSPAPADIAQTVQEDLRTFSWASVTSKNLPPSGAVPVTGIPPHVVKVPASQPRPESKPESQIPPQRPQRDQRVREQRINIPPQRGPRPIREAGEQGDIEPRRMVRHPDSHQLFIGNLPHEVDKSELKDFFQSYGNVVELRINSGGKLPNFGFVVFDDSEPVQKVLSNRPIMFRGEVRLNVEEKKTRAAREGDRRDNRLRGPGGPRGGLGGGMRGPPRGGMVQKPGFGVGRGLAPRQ
Method: RNA Bind-n-Seq
Form: RNA
Matrix: in vitro
Concentration: 200 nM
Notes: whole 134-nt RNA, ends assumed
Together with: 150 mM KCl
Baseline: input library
Reading: higher = stronger binding
Endpoint: log2 enrichment
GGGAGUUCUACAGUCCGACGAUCCUUAUGCCUUCCCCACUGGUAUUGAGGGUUUUGAUAAUAAAUUGGUAGGAAAAAAAAGUACCUCCUAGAAGGAAGCCUUCCCCACCAUUUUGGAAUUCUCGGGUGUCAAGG: 0.0856
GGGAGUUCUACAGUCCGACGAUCUGGAUCUUGGAGGGACCAACUUCCGUGUGCUUUGGGUGAAAGUAACGGACAAUGGGCUCCAGAAGGUGGAGAUGGAGAAUCAGAUCUAUGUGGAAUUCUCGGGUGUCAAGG: -1.41
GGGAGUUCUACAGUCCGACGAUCUAUCCCCUAUGAGGCACCACGUAAGACCUCCUGCCCUUAGCUCUCUUGCUCACCACCCAAGAACCUCAGGACAGAAGCGAGAGCCCAUUGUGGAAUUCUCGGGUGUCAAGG: 0.908
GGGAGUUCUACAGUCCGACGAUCAGUCCUGUGCUACACAUCGUAUGUACCGAAUCGGGGUUUGGGGUUUUUGGGGAGGGGAAAGUAUUAUGUUACGCCGUUCGGAUCUGCACUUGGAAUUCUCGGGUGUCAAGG: 0.525
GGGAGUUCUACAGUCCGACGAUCGUCAAGAAAGAUCUUAAGACUGGUCAUUCAAAGGGGUUUGGCUUUGUUCGUUUUACGGAAUAUGAAACACAAGUGAAAGUAAUGUCACAGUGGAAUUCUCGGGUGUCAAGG: -0.838
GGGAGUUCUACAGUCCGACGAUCUGGCCCUGGUGGCAUGCGGGGAGGAAGAAGUGGCCUCAUGGAUCGUGGUGGUCCCGGUGGAAUGUUCAGAGGUGGCCGUGGUGGAGACAGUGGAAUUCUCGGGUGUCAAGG: 0.328
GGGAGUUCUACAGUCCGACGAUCCCUCAAGUCCUGUGCUACACAUCGUAUGUACCGAAUCGGGGUGGGGUGGUGGGAAAGUAUUAUGUUACGCCGUUCGGAUCUGCACUUCCAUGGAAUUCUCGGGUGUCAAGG: 0.991
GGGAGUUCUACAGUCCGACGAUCCACAGACAACACGCACCCACACAGACACAGAGGGAAGGGGUUGGGAUGGGGACAGGCUGCACAGCAGGGCGGGGUAGGACCCCAGCCCCUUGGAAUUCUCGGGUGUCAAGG: 1.68
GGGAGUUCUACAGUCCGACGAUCCUGUGCUACACAUCGUAUGUACCGAAUCGGGGCCCCCCCGGCCCCCCCGGGGCCCCCCCGGGAAAGUAUUAUGUUACGCCGUUCGGAUCUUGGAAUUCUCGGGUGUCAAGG: -1.09

Sample 4
Target: Histone acetyltransferase KAT6A, winged helix 1, GST fusion (KAT6A, Homo sapiens, UniProt Q92794, residues 1-85)
Method: protein binding microarray
Form: double-stranded DNA, one strand shown
Matrix: in vitro
Concentration: not given
Notes: 8-mer, flanks averaged, mean of 2 arrays, mostly near background
Baseline: not given
Reading: higher = stronger binding
Endpoint: E-score
Target sequence (chain): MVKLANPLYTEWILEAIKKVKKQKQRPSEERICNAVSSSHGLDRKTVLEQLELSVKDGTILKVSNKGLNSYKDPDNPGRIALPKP
ATGTTTGC: -0.0714
TTGACAAA: -0.058
CAACAACC: -0.19
CCTATTAC: -0.0933
AGTAGCAG: -0.213
CAACTATG: -0.12
ATGAATAG: -0.141
CTGGGAAA: -0.156
CCTCACAG: -0.188
ACTGCGTC: 0.159
GCTAATGA: -0.0521
GGTTTTTA: -0.149
CAGGGATC: -0.17
CGAAATCG: 0.217
AGAGCAAC: -0.184
CTCCCTCA: -0.168
AGTGGCTG: -0.0616
TAGGGACA: -0.0597

Sample 5
Target: Sal-like protein 4, full length isoform B (SALL4, Homo sapiens, UniProt Q9UJQ4-2, residues 1-616)
Method: universal PBM
Form: double-stranded DNA, one strand shown
Matrix: in vitro
Concentration: not given
Notes: 8-mer, flanks averaged, mean of replicates
Reading: higher = stronger binding
Endpoint: E-score
CTGACCAC: -0.129
TATTCGCA: 0.165
ACTCTTCA: 0.0871
GGCTCACA: -0.189
GCCTACAA: 0.0291
ATGCTCGG: -0.0935
GCTTTTAA: 0.0849
GCGAGGTA: -0.0188
GGTGGGGA: -0.138
ACAGACCT: -0.0288
AAGGCTGC: -0.21
ATGTTCCG: -0.0579
CCACGTAA: -0.0346
ACGCAACG: -0.17
TCTCCAAA: 0.163
AATGTACC: 0.155
AACATTGA: 0.211
CCCGAGAA: -0.19
GGGGTTAC: -0.31
GTCGCCAC: -0.308
CAACGTGG: -0.163
CAAAGGGG: -0.126
AGCGCCAC: -0.325
AAGAAAGT: 0.157
GGTAGAGA: -0.12

For quick reference, copied from above (sample 3):
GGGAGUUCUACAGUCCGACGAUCCUUAUGCCUUCCCCACUGGUAUUGAGGGUUUUGAUAAUAAAUUGGUAGGAAAAAAAAGUACCUCCUAGAAGGAAGCCUUCCCCACCAUUUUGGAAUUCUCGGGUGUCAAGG: 0.0856
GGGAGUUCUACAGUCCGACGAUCUGGAUCUUGGAGGGACCAACUUCCGUGUGCUUUGGGUGAAAGUAACGGACAAUGGGCUCCAGAAGGUGGAGAUGGAGAAUCAGAUCUAUGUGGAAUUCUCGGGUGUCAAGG: -1.41
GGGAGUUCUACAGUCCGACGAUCUAUCCCCUAUGAGGCACCACGUAAGACCUCCUGCCCUUAGCUCUCUUGCUCACCACCCAAGAACCUCAGGACAGAAGCGAGAGCCCAUUGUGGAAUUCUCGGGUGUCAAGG: 0.908
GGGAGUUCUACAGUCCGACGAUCAGUCCUGUGCUACACAUCGUAUGUACCGAAUCGGGGUUUGGGGUUUUUGGGGAGGGGAAAGUAUUAUGUUACGCCGUUCGGAUCUGCACUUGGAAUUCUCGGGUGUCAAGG: 0.525
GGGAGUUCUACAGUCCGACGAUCGUCAAGAAAGAUCUUAAGACUGGUCAUUCAAAGGGGUUUGGCUUUGUUCGUUUUACGGAAUAUGAAACACAAGUGAAAGUAAUGUCACAGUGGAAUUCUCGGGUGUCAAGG: -0.838
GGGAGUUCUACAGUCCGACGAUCUGGCCCUGGUGGCAUGCGGGGAGGAAGAAGUGGCCUCAUGGAUCGUGGUGGUCCCGGUGGAAUGUUCAGAGGUGGCCGUGGUGGAGACAGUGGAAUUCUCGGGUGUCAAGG: 0.328
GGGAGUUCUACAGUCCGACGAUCCCUCAAGUCCUGUGCUACACAUCGUAUGUACCGAAUCGGGGUGGGGUGGUGGGAAAGUAUUAUGUUACGCCGUUCGGAUCUGCACUUCCAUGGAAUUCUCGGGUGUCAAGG: 0.991
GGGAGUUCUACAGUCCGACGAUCCACAGACAACACGCACCCACACAGACACAGAGGGAAGGGGUUGGGAUGGGGACAGGCUGCACAGCAGGGCGGGGUAGGACCCCAGCCCCUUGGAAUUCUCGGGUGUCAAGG: 1.68
